Measurements collected from several papers.
Each numbered part is a random draw from the data of one study; scales do not carry over between parts.

Study 1
Target: Interferon regulatory factor 5, full length, phosphomimetic (IRF5, Homo sapiens, UniProt Q13568-2, residues 1-514, S451D/S453D/S456D/S462D)
Technique: protein-binding microarray
Molecule type: double-stranded DNA, one strand shown
Medium: in vitro
Concentration: 940 nM top
Setting: 60-bp whole probe
With: salmon DNA 0.4 mg/ml
Reference: random background probes
Reading: higher = stronger binding
Constant ends, left off below: GCCTAGCAC … GTCTTGATTCGCTTGACGCTGCTG
`TCAAGCCTCTGTTTTGAACTGTGCTAG`: “fitted relative affinity” -0.532 z-score.
`GACGGTCTCGGACTAGGGACGTGCTAG`: “fitted relative affinity” 0.878 z-score.
Under “fitted relative affinity”, `TGAGGTTTCCTTTTCCTTTAGTGCTAG` is recorded as 1.33 z-score.
`GACGGTATCCTTCGCCTGACGTGCTAG` — result for “fitted relative affinity”: 0.266 z-score.
`GACGGACTGGGGTTTGGGGACGTGCTA`: “fitted relative affinity” -0.226 z-score.

Study 2
Target: Microphthalmia-associated transcription factor, full length (MITF, Homo sapiens, UniProt O75030-10, residues 1-413)
Technique: protein-binding microarray
Molecule type: double-stranded DNA, one strand shown
Medium: in vitro
Concentration: not given
Setting: k-mer, scored over probes, only values ≥0.25
Reading: higher = stronger binding
For `ATCACGG`, the E-score was 0.386.
The E-score of `CATGCAC` is reported as 0.339.
`CACATGG` gave an E-score of 0.41.
`CCCCACG` has an E-score of 0.297.
The E-score of `CATGATC` is reported as 0.356.

Study 3
Target: Prothrombin, mature alpha-thrombin (F2, Homo sapiens, UniProt P00734)
Technique: aptamer microarray, sandwich
Molecule type: DNA with 2'F-ANA
Medium: in vitro
Concentration: 200 nM
Setting: whole 15-mer aptamer, many near background
With: Cy3 exosite-II aptamer, 400 nM
Reading: higher = stronger binding
Strand: GGTTGGTGTGGTTGG
`2'F-ANA at 4 6 9 11 13 15` — result for “mean fluorescence intensity”: 137 a.u.
`2'F-ANA at 1 2 5 9 12 14 15` — result for “mean fluorescence intensity”: 45.5 a.u.
`2'F-ANA at 2 3 4 5 7 11 14 15` — result for “mean fluorescence intensity”: 66.4 a.u.
For `2'F-ANA at 2 4 7 9 10 12 14 15`, “mean fluorescence intensity” read 66.6 a.u.
For `2'F-ANA at 1 4 5 6 7 8 9 11 14`, “mean fluorescence intensity” read 51.6 a.u.

Single results of other studies
`PhoQ, residues 284 288 289 292 302 303 SLANKL` has a fold induction of 2.36 (PhoP, residues 12 14 15 18 19 YHFSH (Escherichia coli, UniProt P23836); Sort-seq, item: YFP reporter; E. coli; PhoQ-PhoP variant library, with: 10 µM Mg2+; reference: high Mg2+ state, higher = stronger signaling).

Repeated from above (study 3):
For `2'F-ANA at 1 4 5 6 7 8 9 11 14`, “mean fluorescence intensity” read 51.6 a.u.
